Results from different studies.
Parts stem from different laboratories: compare values within a part only.
UniProt Q16659, sequence (whole entry, looked up): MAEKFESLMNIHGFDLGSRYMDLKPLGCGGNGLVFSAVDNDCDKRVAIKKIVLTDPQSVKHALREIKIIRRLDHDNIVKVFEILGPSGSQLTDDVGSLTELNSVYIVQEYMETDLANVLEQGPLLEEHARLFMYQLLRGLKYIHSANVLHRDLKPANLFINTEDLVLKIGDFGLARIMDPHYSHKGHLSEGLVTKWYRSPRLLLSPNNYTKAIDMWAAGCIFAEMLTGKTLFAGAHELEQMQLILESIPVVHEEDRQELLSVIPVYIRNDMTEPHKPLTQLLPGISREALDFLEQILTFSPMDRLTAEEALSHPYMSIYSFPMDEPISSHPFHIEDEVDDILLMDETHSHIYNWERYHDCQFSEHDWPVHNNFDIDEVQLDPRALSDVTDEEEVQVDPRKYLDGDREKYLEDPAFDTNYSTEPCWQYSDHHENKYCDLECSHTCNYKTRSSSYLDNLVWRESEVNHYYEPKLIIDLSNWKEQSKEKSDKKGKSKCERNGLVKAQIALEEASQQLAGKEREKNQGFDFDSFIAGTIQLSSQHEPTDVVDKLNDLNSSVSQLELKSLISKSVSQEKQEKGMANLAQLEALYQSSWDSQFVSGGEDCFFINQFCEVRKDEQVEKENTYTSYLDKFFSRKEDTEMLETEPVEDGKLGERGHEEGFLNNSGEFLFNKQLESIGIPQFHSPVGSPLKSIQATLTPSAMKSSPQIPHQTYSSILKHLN
UniProt Q08345, sequence (whole entry, looked up): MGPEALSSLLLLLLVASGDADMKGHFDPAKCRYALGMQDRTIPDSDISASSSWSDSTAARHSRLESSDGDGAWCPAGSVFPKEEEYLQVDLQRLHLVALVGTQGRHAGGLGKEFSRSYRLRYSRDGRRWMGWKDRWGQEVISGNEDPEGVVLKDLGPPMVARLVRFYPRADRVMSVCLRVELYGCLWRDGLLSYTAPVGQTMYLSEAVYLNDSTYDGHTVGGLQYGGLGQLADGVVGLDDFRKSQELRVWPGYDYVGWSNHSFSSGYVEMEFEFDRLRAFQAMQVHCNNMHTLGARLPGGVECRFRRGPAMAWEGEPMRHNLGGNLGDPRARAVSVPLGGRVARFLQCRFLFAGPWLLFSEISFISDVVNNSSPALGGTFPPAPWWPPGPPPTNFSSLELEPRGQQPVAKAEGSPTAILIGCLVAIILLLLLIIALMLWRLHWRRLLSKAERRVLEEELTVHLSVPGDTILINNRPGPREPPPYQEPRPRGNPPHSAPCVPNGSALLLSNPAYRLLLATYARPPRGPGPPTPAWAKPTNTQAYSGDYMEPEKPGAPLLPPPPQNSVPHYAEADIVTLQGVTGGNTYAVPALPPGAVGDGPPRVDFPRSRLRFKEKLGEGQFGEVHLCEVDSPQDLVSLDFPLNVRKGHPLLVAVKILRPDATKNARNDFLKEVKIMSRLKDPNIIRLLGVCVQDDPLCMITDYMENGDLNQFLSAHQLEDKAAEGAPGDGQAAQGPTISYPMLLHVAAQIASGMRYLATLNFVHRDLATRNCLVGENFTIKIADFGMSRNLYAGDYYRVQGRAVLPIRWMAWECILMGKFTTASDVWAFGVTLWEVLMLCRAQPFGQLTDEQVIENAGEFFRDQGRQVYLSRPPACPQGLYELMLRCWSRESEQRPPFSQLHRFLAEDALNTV
UniProt P42680, sequence (whole entry, looked up): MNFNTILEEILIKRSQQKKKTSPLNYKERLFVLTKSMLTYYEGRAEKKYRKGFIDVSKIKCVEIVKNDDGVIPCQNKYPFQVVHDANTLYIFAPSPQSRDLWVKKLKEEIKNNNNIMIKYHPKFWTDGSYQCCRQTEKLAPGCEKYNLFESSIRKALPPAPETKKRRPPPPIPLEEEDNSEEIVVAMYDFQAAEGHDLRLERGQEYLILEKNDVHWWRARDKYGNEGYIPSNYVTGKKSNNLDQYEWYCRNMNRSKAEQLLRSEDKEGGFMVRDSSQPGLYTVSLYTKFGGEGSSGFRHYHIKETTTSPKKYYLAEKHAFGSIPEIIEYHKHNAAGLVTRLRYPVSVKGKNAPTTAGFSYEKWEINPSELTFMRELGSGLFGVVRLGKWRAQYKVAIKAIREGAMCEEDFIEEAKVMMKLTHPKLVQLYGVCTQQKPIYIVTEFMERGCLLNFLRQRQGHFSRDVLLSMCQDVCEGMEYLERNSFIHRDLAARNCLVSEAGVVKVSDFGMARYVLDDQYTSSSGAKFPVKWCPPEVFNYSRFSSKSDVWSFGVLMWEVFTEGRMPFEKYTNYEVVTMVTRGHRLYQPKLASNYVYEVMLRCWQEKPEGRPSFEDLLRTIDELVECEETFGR
UniProt P29376, sequence (whole entry, looked up): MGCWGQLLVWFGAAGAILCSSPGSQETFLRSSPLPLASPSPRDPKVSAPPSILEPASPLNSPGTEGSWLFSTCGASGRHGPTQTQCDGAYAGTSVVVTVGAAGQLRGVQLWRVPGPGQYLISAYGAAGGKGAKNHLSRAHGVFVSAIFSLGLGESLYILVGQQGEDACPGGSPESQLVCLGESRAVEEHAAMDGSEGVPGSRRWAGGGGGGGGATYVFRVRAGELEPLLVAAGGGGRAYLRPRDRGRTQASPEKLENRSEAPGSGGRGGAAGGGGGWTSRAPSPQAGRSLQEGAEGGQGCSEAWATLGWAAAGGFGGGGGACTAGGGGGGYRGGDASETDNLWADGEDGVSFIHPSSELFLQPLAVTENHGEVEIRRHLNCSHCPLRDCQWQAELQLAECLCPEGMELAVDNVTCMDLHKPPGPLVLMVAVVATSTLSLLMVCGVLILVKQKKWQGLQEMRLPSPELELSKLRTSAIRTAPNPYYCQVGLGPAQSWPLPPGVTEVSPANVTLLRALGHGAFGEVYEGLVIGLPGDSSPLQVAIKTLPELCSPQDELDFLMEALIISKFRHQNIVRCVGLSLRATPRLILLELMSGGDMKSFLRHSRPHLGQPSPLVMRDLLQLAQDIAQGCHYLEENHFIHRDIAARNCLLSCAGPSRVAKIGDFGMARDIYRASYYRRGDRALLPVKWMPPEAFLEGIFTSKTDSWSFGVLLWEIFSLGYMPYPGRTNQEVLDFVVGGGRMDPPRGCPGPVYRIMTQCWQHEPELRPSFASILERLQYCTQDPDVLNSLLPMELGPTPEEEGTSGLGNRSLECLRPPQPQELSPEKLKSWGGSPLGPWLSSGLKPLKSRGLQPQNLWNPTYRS
UniProt Q99683, sequence (whole entry, looked up): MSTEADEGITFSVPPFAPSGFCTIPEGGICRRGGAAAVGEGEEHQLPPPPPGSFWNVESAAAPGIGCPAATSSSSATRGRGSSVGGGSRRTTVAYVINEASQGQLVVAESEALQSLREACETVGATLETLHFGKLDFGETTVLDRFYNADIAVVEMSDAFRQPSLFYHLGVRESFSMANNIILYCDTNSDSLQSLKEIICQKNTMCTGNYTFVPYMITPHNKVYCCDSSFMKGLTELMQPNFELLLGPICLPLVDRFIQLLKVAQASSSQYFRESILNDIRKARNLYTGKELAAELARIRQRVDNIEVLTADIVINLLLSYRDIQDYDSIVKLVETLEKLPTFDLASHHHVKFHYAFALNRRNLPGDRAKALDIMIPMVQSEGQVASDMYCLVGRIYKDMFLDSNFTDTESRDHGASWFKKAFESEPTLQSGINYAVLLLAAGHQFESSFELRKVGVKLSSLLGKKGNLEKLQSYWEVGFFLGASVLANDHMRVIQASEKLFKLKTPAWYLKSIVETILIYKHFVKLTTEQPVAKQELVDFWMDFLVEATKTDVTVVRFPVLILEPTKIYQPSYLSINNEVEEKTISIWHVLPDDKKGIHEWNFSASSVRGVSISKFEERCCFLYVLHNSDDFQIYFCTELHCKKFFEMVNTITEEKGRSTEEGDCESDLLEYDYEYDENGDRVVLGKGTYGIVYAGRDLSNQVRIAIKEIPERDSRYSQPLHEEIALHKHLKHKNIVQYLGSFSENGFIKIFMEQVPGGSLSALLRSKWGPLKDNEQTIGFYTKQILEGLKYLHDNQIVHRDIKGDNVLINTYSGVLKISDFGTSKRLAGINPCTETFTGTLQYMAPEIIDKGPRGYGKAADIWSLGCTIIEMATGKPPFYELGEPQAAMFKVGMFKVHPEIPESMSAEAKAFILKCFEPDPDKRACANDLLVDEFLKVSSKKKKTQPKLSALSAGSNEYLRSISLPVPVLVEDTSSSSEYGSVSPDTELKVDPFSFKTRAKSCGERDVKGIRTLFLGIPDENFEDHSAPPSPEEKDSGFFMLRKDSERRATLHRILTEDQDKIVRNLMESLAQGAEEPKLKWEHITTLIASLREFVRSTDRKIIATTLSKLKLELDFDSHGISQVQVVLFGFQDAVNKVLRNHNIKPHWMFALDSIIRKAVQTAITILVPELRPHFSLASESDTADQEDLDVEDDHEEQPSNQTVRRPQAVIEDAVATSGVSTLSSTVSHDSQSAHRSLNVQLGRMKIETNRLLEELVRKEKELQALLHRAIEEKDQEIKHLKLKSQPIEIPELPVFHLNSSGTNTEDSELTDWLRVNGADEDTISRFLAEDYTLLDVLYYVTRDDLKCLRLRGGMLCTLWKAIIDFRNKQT

Sample 1
SMILES: CO[C@@H](C)c1c(Nc2ccc([C@@H](N(C)C(=O)C3CCS(=O)(=O)CC3)C(F)(F)F)cc2)cnc2cc(Cl)nn12
Effect on: cell-free assay
Technique: competition with immobilised ligand
Concentration: 1 µM
Measurement: remaining binding
Tyrosine-protein kinase Fyn (FYN, Homo sapiens, UniProt P06241): 95%
Epithelial discoidin domain-containing receptor 1 (DDR1, Homo sapiens, UniProt Q08345): 100%
Cyclin-G-associated kinase (GAK, Homo sapiens, UniProt O14976): 93%
Non-receptor tyrosine-protein kinase TNK1 (TNK1, Homo sapiens, UniProt Q13470): 87%
Cyclin-dependent kinase 9 (CDK9, Homo sapiens, UniProt P50750): 100%
Leukocyte tyrosine kinase receptor (LTK, Homo sapiens, UniProt P29376): 95%
Mitogen-activated protein kinase 6 (MAPK6, Homo sapiens, UniProt Q16659): 91%
Serine/threonine-protein kinase DCLK1 (DCLK1, Homo sapiens, UniProt O15075): 75%
Serine/threonine-protein kinase TNNI3K (TNNI3K, Homo sapiens, UniProt Q59H18): 91%
Mitogen-activated protein kinase kinase kinase 14 (MAP3K14, Homo sapiens, UniProt Q99558): 90%
Citron Rho-interacting kinase (CIT, Homo sapiens, UniProt O14578): 97%
High affinity nerve growth factor receptor (NTRK1, Homo sapiens, UniProt P04629): 93%
Leucine-rich repeat serine/threonine-protein kinase 2 (LRRK2, Homo sapiens, UniProt Q5S007): 100%
Tyrosine-protein kinase ABL1, phosphorylated (ABL1, Homo sapiens, UniProt P00519): 59%
Mitogen-activated protein kinase 9 (MAPK9, Homo sapiens, UniProt P45984): 76%

Sample 2
SMILES: CC(C)n1cnc(-c2ccc(F)cc2)c1-c1ncc(C(=O)Nc2ccc(N3CCN(C)CC3)cc2)[nH]1
Technique: phase 2a trial
Host: idiopathic pulmonary fibrosis patients
Measurement: patients with cardiac failure
30 mg once daily, adverse event grade 5: 0%
60 mg once daily, adverse event grade 4: 0%
60 mg once daily, adverse event grade 5: 0%
30 mg once daily, adverse event grade 2: 0%
dose not given, adverse event grade 1, all dose arms pooled: 0%
dose not given, adverse event grade 3, all dose arms pooled: 0%
dose not given, adverse event grade 2, all dose arms pooled: 0%
30 mg once daily, adverse event grade 4: 0%
60 mg once daily, adverse event grade 1: 0%
60 mg once daily, adverse event grade 3: 0%

Sample 3
SMILES: CC#CC(=O)N1CCC[C@H]1c1nc(-c2ccc(C(=O)Nc3ccccn3)cc2)c2c(N)nccn12
Mode: inhibitor
Concentration: 1 µM
Measurement: inhibition
Serine/threonine-protein kinase D1 (PRKD1, Homo sapiens, UniProt Q15139); enzyme activity: 1%
Bone morphogenetic protein receptor type-1B (BMPR1B, Homo sapiens, UniProt O00238); enzyme activity: 36%
Serine/threonine-protein kinase NLK (NLK, Homo sapiens, UniProt Q9UBE8); enzyme activity: 0%
5'-AMP-activated protein kinase catalytic subunit alpha-1 (PRKAA1, Homo sapiens, UniProt Q13131); enzyme activity: 0%
Receptor-type tyrosine-protein kinase FLT3 (FLT3, Homo sapiens, UniProt P36888, D835H); enzyme activity: 1%
Tyrosine-protein kinase JAK1, JH1 kinase domain (JAK1, Homo sapiens, UniProt P23458): 2%
Fibroblast growth factor receptor 3 (FGFR3, Homo sapiens, UniProt P22607); enzyme activity: 3%
Tyrosine-protein kinase Tec (TEC, Homo sapiens, UniProt P42680); enzyme activity: 89%
Mitogen-activated protein kinase kinase kinase 5 (MAP3K5, Homo sapiens, UniProt Q99683); enzyme activity: 22%
Tyrosine-protein kinase ABL1, phosphorylated (ABL1, Homo sapiens, UniProt P00519, H396P); enzyme activity: 19%
Proto-oncogene tyrosine-protein kinase receptor Ret (RET, Homo sapiens, UniProt P07949, V804M); enzyme activity: 15%

Sample 4
Target: Cyclin-dependent kinase 7 (CDK7, Homo sapiens, UniProt P50613)
UniProt P50613, sequence (whole entry, looked up): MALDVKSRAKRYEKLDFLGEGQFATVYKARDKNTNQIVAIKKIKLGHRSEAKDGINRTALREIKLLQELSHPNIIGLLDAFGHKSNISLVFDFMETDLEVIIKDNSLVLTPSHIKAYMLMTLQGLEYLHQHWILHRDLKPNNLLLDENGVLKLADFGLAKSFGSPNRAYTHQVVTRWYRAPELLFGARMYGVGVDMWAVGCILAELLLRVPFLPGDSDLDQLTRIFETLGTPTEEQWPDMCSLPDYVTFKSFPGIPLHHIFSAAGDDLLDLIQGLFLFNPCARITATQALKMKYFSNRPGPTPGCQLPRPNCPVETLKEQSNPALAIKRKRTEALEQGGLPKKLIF
Effect on: enzyme activity
Mode: inhibitor
Concentration: 0.5 µM
Relative to: control
Measurement: remaining activity
C[C@@H]1CCN(C(=O)CC#N)C[C@@H]1N(C)c1ncnc2[nH]ccc12: 119%
CCN(CC)C(=O)c1ccc(Nc2nc(OCC3CCCCC3)c3[nH]cnc3n2)cc1: 87.6%
O=C(NC(NC(=S)Nc1ccc(F)c([N+](=O)[O-])c1)C(Cl)(Cl)Cl)C(c1ccccc1)c1ccccc1 (centres unmarked): 99%
COc1cc2ncnc(Nc3ccc(O)c(Br)c3)c2cc1OC: 97%
Cc1nc2cc3nc(-c4cccs4)cnc3cc2n1C: 102%
N#C/C(=C\c1ccc(O)c(O)c1)C(=O)NCc1ccccc1: 120%
CCOc1nc(NC(=O)Cc2cc(OC)ccc2OC)cc(N)c1C#N: 103%
N#Cc1c(NC(=O)c2cccc3ccccc23)sc2c1CCCC2: 101%
CCN(CC)CCNC(=O)c1c(C)[nH]c(/C=C2\C(=O)Nc3ccc(Cl)cc32)c1C: 72.8%
CN([C@@H](Cc1ccc(OS(=O)(=O)c2cccc3cnccc23)cc1)C(=O)N1CCN(c2ccccc2)CC1)S(=O)(=O)c1cccc2cnccc12: 99.4%
Cc1cc2ncc(-c3ccccc3)nc2cc1C: 98.5%
O=C1c2ccccc2-c2n[nH]c3cccc1c23: 94.7%
O=C(Nc1cccc(Nc2nccc(Nc3cccc(C(F)(F)F)c3)n2)c1)C1CC1: 92.6%
c1ccc(-c2cnc(Nc3ccc(OCCN4CCCC4)cc3)s2)cc1: 102%
COc1cc2c(cc1OC)-c1[nH]nc(Nc3cccc(F)c3)c1C2: 101%
CN(C)C[C@H]1CCn2c(c(C3=C(c4cn(C)c5ccccc45)C(=O)NC3=O)c3ccccc32)C1: 83%
Nc1cccc(-c2cc3c(Oc4cccc(O)c4)ncnc3[nH]2)c1: 94.2%
O=c1cc(-c2cccc3c2Sc2ccccc2S3)oc(N2CCOCC2)c1: 96.5%
Cn1nc2c3c(cccc31)C(=O)c1ccccc1-2: 98.8%
Cc1cn(-c2cc(NC(=O)c3ccc(C)c(Nc4nccc(-c5cccnc5)n4)c3)cc(C(F)(F)F)c2)cn1: 109%
O=C1C(Cl)=C(N2C(=O)CCC2=O)C(=O)c2ccccc21: 101%
Ic1cccc(CSc2nnc(-c3ccncc3)o2)c1: 96.7%
COc1cc2ncnc(Nc3cccc(Cl)c3)c2cc1OC: 99.9%

For quick reference, copied from above (sample 2):
dose not given, adverse event grade 3, all dose arms pooled: 0%
60 mg once daily, adverse event grade 1: 0%
60 mg once daily, adverse event grade 3: 0%
30 mg once daily, adverse event grade 4: 0%
dose not given, adverse event grade 1, all dose arms pooled: 0%
